{"data": "Experimental data from different studies", "note": "Each numbered part is a random draw from the data of one study; scales do not carry over between parts.", "sequence of UniProt P31751 (whole entry, looked up)": "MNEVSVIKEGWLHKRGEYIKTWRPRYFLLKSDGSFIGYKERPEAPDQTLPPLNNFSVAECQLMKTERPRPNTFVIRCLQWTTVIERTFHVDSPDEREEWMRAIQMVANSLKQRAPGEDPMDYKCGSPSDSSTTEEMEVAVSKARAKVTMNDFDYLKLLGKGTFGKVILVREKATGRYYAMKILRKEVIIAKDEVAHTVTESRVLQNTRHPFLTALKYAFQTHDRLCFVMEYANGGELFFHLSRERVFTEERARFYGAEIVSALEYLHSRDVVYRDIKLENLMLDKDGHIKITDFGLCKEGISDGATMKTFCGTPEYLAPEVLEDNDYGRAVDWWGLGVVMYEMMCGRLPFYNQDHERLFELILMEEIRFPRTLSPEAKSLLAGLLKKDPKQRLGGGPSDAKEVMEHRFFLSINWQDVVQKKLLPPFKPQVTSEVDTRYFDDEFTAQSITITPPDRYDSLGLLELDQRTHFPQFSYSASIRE", "sequence of UniProt P28482 (whole entry, looked up)": "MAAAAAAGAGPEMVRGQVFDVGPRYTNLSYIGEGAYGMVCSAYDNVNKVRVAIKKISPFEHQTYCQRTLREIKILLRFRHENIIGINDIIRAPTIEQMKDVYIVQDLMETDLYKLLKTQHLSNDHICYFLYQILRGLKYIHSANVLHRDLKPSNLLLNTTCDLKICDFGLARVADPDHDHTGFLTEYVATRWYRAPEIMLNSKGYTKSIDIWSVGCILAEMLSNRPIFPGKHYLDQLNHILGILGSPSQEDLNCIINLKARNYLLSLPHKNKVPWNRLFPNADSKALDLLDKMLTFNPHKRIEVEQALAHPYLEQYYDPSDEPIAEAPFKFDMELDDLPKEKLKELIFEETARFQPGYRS", "sequence of UniProt O94804 (whole entry, looked up)": "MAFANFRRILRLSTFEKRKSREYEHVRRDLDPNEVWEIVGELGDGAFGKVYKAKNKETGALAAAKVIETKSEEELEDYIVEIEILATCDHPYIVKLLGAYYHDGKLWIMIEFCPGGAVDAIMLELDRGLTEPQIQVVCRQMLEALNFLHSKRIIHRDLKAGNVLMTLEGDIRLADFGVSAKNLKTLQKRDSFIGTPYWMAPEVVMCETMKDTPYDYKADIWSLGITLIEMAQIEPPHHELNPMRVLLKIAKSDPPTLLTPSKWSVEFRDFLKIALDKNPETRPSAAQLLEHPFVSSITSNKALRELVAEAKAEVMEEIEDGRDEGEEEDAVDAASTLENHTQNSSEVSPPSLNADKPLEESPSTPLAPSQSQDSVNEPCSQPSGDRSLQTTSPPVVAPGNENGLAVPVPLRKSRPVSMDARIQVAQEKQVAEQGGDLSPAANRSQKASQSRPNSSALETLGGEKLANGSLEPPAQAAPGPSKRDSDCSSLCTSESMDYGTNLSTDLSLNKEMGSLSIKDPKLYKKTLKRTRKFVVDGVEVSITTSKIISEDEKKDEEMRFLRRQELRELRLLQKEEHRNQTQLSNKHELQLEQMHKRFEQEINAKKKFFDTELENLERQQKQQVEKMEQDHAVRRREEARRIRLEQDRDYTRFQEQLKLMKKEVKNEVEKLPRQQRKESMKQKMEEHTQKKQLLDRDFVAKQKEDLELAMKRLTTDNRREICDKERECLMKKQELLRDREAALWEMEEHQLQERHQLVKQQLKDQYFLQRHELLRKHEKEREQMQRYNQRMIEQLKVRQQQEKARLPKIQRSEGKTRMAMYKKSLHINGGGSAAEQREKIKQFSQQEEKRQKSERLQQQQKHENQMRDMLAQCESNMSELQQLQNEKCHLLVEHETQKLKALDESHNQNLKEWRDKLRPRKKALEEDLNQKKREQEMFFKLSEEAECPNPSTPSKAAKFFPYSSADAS", "sequence of UniProt Q8N568 (whole entry, looked up)": "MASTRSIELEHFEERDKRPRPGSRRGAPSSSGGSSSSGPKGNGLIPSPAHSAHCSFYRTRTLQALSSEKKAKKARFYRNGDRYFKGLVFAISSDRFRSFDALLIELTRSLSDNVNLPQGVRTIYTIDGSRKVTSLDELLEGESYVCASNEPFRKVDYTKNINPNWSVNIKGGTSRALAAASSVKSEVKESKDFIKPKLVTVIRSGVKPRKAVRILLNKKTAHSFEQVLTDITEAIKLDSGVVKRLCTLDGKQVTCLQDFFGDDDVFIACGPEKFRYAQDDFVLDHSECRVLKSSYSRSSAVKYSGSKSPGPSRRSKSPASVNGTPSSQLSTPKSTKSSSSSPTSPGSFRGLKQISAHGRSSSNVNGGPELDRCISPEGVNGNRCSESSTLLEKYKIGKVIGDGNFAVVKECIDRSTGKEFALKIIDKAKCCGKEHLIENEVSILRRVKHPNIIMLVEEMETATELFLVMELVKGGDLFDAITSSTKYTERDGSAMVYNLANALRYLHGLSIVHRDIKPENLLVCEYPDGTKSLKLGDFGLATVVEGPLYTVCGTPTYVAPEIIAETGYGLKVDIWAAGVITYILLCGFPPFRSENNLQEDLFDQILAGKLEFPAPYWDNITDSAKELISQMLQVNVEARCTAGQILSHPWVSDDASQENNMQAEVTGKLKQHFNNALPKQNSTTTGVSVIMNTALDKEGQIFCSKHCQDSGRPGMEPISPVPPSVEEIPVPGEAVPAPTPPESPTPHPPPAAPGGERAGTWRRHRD", "sequence of UniProt Q9HAZ1 (whole entry, looked up)": "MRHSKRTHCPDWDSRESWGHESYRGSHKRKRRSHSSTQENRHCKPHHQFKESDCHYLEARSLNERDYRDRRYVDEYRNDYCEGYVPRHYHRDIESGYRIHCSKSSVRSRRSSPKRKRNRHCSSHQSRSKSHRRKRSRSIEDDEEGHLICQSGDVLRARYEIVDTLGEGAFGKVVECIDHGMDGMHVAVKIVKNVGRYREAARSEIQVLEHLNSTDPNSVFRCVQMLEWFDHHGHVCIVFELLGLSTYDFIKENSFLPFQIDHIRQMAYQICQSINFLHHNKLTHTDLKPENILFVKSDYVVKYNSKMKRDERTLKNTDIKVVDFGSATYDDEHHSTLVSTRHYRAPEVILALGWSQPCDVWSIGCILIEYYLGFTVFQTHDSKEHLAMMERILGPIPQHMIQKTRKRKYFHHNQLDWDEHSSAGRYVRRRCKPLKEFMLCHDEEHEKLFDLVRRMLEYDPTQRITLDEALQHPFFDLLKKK", "sequence of UniProt P50750 (whole entry, looked up)": "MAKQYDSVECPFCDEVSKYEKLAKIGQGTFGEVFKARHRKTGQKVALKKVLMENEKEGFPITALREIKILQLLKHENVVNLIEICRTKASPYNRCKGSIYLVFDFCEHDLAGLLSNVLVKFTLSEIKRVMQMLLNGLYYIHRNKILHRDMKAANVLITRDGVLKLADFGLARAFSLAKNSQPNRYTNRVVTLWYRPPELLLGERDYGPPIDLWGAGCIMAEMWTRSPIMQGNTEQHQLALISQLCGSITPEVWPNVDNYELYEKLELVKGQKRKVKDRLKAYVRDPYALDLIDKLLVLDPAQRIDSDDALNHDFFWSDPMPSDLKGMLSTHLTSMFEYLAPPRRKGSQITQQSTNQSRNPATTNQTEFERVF", "sequence of UniProt Q16539 (whole entry, looked up)": "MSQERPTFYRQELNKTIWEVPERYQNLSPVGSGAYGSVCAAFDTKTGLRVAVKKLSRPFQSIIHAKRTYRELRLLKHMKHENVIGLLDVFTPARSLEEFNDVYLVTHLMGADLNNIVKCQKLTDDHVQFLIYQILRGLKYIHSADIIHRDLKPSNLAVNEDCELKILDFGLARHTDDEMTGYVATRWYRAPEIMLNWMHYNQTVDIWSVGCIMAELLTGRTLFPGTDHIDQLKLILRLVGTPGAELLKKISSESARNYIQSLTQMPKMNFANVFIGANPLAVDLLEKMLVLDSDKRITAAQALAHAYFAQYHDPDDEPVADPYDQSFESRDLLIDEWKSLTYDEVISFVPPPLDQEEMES", "sequence of UniProt P53779 (whole entry, looked up)": "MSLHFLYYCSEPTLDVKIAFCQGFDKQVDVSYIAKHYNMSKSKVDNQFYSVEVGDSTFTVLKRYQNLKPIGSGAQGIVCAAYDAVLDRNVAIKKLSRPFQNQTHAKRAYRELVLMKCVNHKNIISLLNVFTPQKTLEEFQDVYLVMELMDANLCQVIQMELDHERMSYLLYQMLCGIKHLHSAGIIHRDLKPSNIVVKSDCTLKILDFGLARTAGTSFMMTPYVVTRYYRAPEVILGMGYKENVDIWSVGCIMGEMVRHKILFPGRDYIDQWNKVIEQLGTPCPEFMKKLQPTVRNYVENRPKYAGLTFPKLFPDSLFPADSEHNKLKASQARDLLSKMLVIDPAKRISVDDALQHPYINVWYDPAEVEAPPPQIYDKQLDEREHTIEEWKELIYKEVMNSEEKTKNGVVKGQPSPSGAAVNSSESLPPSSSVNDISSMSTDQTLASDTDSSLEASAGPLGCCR", "sequence of UniProt Q96L34 (whole entry, looked up)": "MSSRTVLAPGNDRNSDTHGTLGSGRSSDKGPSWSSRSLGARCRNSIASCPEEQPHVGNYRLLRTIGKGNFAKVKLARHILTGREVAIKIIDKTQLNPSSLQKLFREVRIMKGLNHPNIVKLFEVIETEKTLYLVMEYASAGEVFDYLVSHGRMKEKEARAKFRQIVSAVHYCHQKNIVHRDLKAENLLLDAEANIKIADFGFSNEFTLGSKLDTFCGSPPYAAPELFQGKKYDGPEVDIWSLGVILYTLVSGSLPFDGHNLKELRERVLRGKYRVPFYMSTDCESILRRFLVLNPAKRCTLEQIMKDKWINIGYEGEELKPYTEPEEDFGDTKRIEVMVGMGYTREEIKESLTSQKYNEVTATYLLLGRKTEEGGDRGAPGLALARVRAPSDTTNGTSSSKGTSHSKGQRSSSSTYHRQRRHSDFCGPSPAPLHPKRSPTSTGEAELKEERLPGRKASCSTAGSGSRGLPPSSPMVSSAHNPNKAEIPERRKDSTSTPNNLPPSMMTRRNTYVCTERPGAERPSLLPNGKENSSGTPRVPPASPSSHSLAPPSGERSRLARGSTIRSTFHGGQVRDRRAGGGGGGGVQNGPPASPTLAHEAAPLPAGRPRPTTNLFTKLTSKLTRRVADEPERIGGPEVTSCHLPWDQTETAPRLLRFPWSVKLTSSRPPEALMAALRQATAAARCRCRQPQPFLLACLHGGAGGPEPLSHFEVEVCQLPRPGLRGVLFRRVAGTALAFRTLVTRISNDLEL"}
{"data": "Sample 1", "cell line": "HaCaT", "tested at": "100 µM", "time": "18 h"}
{"SMILES": "NC(=O)c1cccnc1", "viability [%]": 120}
{"SMILES": "CN(N=O)C(=O)N[C@@H](C=O)[C@@H](O)[C@H](O)[C@H](O)CO", "viability [%]": 108}
{"SMILES": "CCC[C@H](N[C@@H](C)C(=O)N1[C@H](C(=O)O)C[C@@H]2CCCC[C@@H]21)C(=O)OCC", "viability [%]": 111}
{"SMILES": "CCC(=O)NCC[C@@H]1CCc2ccc3c(c21)CCO3", "viability [%]": 110}
{"SMILES": "O=C(N[C@H](CO)[C@H](O)c1ccc([N+](=O)[O-])cc1)C(Cl)Cl", "viability [%]": 118}
{"SMILES": "COc1ccc(CN2CCN(C(c3ccc(F)cc3)c3ccc(F)cc3)CC2)c(OC)c1OC", "viability [%]": 34.2}
{"data": "Sample 2", "SMILES": "Nc1c(C(=O)NCc2ccc(C(=O)NCCCC3CCCCC3)cc2)cnn1-c1ccccc1", "effect on": "cell-free assay", "method": "competition with immobilised ligand", "tested at": "0.1 µM"}
{"target": "HUNK (Homo sapiens, UniProt P57058)", "remaining binding [%]": 100}
{"target": "MAPK10 (Homo sapiens, UniProt P53779)", "remaining binding [%]": 100}
{"target": "STK10 (Homo sapiens, UniProt O94804)", "remaining binding [%]": 100}
{"target": "CDK4 (Homo sapiens, UniProt P11802)", "remaining binding [%]": 100}
{"target": "TNIK (Homo sapiens, UniProt Q9UKE5)", "remaining binding [%]": 100}
{"data": "Sample 3", "Structure (SMILES)": "CC(C)c1nn(-c2c(Cl)cccc2Cl)c2nc(Cc3ccc(OCCO)cc3)[nH]c(=O)c12", "effect on": "enzyme activity", "mode": "inhibitor", "tested at": "0.5 µM", "baseline": "control"}
{"target": "DCLK2 (Homo sapiens, UniProt Q8N568)", "remaining activity": "95.9%"}
{"target": "MAPK14 (Homo sapiens, UniProt Q16539)", "remaining activity": "96.8%"}
{"target": "KDR (Homo sapiens, UniProt P35968)", "remaining activity": "105%"}
{"target": "PLK3 (Homo sapiens, UniProt Q9H4B4)", "remaining activity": "99.1%"}
{"target": "GRK4 (Homo sapiens, UniProt P32298)", "remaining activity": "97.3%"}
{"target": "MET (Homo sapiens, UniProt P08581)", "remaining activity": "91%"}
{"target": "CAMK4 (Homo sapiens, UniProt Q16566)", "remaining activity": "102%"}
{"target": "AKT2 (Homo sapiens, UniProt P31751)", "remaining activity": "92.4%"}
{"target": "MAPK1 (Homo sapiens, UniProt P28482)", "remaining activity": "91.7%"}
{"target": "TXK (Homo sapiens, UniProt P42681)", "remaining activity": "101%"}
{"target": "Cyclin-dependent kinase 9, with cyclin K (CDK9, Homo sapiens, UniProt P50750)", "remaining activity": "21.6%"}
{"target": "MARK4 (Homo sapiens, UniProt Q96L34)", "remaining activity": "99.5%"}
{"target": "PNCK (Homo sapiens, UniProt Q6P2M8)", "remaining activity": "94.3%"}
{"target": "CLK4 (Homo sapiens, UniProt Q9HAZ1)", "remaining activity": "81.2%"}
{"data": "Sample 4", "species": "mouse", "sample": "microsomes or S9", "tested at": "2 µM", "time": "0.5 h"}
{"Structure (SMILES)": "Cc1cnc(C)n1CCNS(=O)(=O)c1cccs1", "remaining compound [%]": 34.4}
{"Structure (SMILES)": "COc1ccc(CNC(=O)CCc2nnc3ccc(-c4ccc(Cl)cc4)nn23)c(OC)c1", "remaining compound [%]": 0.529}
{"Structure (SMILES)": "COc1ccc2ccccc2c1-c1cc(CN)on1", "remaining compound [%]": 57.9}
{"Structure (SMILES)": "O=C(NC12CC3CC(CC(C3)C1)C2)C1CCN(c2cc(-n3cccc3)ncn2)CC1", "remaining compound [%]": 11.3}
{"Structure (SMILES)": "CON(C)C(=O)c1cc(C(C)C)nc2c1c(C)nn2C(C)(C)C", "remaining compound [%]": 2.6}
{"Structure (SMILES)": "CCN(CCCN(C)C)S(=O)(=O)c1ccc(S(=O)(=O)CC)cc1", "remaining compound [%]": 89.4}
{"Structure (SMILES)": "Fc1ccc2nc(-c3ccc4c(c3)OCO4)c3nn[nH]c3c2c1", "remaining compound [%]": 4.45}
{"Structure (SMILES)": "COCCCn1c(C(=O)Nc2cc(Cl)ccc2OC)cc2c(=O)n3ccccc3nc21", "remaining compound [%]": 3.49}
{"note": "Repeated from above (sample 4):"}
{"Structure (SMILES)": "COc1ccc(CNC(=O)CCc2nnc3ccc(-c4ccc(Cl)cc4)nn23)c(OC)c1", "remaining compound [%]": 0.529}
{"Structure (SMILES)": "Cc1cnc(C)n1CCNS(=O)(=O)c1cccs1", "remaining compound [%]": 34.4}
{"Structure (SMILES)": "COc1ccc2ccccc2c1-c1cc(CN)on1", "remaining compound [%]": 57.9}
